Published values pooled from the literature.
Each line is one published result; not all experiments were run side by side. ± gives the spread as reported.
SCRIB PDZ3 domain: Protein scribble homolog, PDZ3 domain (SCRIB, Homo sapiens, UniProt Q14160)
Chain of UniProt Q14160 (whole entry, looked up): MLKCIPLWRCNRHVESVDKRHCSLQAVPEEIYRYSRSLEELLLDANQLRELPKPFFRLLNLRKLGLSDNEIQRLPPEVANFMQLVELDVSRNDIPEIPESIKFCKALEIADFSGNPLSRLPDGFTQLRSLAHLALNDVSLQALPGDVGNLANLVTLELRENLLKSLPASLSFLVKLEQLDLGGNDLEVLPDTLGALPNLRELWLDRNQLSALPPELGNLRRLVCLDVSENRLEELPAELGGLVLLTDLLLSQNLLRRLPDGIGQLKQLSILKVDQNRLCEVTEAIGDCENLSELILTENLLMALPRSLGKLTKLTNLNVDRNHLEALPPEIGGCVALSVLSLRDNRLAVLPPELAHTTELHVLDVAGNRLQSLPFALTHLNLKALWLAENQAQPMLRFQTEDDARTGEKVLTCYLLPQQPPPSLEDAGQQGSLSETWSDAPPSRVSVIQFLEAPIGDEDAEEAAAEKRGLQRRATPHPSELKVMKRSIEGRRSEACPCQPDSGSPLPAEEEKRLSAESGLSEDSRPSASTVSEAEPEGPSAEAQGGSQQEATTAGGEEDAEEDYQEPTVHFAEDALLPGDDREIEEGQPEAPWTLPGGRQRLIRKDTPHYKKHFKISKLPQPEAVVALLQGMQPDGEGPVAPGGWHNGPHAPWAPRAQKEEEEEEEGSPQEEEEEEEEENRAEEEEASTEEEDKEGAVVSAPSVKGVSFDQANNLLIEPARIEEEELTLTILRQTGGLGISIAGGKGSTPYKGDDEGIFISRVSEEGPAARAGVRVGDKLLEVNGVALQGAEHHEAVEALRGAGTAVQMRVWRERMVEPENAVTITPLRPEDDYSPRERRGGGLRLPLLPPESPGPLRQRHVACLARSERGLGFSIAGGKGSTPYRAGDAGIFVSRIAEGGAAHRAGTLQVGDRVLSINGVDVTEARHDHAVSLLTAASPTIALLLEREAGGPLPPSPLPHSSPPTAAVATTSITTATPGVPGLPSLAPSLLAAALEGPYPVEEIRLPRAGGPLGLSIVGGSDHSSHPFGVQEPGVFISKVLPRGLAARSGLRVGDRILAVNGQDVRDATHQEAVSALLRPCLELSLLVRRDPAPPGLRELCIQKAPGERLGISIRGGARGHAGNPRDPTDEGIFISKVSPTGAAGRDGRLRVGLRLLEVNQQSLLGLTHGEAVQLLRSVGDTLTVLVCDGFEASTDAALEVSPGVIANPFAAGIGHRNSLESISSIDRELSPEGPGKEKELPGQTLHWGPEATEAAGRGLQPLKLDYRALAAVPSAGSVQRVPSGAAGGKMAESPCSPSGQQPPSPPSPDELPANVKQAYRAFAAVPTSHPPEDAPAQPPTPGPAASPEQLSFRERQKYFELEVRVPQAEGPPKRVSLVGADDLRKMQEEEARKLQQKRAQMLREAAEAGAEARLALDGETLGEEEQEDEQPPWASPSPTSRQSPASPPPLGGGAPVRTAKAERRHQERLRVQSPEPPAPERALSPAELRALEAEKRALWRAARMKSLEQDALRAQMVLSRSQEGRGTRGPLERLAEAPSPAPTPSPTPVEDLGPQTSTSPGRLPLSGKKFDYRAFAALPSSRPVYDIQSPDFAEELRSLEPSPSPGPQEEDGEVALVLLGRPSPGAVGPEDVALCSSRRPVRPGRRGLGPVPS
4'-phosphopantetheinyl transferase PptT: 4'-phosphopantetheinyl transferase PptT (Mycobacterium tuberculosis, UniProt O33336)
Chain of UniProt O33336 (whole entry, looked up): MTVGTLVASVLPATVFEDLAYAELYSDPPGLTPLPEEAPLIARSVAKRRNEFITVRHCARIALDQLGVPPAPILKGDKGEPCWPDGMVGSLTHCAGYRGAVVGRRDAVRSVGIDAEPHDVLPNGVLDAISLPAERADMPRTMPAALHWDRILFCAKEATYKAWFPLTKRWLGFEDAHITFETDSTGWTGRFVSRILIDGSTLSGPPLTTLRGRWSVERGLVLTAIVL
Chain of UniProt P20782 (whole entry, unmodified, looked up): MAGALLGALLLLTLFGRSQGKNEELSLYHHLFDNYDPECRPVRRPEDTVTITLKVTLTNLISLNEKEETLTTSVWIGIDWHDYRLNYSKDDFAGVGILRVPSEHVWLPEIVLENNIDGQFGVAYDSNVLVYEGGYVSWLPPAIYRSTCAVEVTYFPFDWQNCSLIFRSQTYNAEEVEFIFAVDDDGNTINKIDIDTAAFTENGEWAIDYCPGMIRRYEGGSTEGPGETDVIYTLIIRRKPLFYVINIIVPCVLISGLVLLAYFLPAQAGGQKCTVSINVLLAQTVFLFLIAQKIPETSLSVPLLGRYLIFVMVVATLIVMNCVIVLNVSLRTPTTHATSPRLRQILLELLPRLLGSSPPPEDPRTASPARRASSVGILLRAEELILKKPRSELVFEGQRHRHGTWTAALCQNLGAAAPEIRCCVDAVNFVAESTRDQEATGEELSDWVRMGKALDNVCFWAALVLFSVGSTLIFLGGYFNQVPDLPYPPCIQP
Chain of UniProt P04756 (whole entry, unmodified, looked up): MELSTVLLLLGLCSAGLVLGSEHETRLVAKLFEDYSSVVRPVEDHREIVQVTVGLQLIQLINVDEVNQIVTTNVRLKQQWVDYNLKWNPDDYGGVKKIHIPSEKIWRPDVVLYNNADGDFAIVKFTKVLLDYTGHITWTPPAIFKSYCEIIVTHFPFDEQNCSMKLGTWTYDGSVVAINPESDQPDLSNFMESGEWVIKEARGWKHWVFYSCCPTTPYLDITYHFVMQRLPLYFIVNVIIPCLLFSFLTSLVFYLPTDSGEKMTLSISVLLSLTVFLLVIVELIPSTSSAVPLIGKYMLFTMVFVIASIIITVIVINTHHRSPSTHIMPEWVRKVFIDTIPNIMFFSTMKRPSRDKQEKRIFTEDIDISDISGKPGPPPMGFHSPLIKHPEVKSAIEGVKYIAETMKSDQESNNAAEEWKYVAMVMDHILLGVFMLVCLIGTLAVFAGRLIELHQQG
Chain of UniProt P21964 (whole entry, looked up): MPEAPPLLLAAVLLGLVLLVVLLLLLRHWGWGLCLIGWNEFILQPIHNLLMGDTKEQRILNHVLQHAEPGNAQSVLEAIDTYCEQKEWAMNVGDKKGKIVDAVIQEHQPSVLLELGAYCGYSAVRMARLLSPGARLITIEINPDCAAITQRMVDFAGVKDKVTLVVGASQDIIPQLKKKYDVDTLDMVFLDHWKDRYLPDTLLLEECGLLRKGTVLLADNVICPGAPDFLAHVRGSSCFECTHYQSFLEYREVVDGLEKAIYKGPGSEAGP
Chain of UniProt P02716 (whole entry, unmodified, looked up): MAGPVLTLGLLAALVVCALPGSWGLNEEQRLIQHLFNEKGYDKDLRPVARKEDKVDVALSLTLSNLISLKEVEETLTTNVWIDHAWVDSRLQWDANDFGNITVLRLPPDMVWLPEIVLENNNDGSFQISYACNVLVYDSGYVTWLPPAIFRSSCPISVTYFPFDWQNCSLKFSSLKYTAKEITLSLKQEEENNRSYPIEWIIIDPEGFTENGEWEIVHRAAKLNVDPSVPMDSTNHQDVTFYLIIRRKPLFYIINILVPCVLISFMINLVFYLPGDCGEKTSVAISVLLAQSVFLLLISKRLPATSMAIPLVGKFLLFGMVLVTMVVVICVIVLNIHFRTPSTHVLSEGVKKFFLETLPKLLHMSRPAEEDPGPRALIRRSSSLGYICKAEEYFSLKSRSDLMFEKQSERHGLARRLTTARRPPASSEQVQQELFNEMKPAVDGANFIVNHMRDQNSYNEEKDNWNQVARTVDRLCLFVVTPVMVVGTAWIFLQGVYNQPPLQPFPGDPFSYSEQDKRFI
Chain of UniProt Q15393 (whole entry, looked up): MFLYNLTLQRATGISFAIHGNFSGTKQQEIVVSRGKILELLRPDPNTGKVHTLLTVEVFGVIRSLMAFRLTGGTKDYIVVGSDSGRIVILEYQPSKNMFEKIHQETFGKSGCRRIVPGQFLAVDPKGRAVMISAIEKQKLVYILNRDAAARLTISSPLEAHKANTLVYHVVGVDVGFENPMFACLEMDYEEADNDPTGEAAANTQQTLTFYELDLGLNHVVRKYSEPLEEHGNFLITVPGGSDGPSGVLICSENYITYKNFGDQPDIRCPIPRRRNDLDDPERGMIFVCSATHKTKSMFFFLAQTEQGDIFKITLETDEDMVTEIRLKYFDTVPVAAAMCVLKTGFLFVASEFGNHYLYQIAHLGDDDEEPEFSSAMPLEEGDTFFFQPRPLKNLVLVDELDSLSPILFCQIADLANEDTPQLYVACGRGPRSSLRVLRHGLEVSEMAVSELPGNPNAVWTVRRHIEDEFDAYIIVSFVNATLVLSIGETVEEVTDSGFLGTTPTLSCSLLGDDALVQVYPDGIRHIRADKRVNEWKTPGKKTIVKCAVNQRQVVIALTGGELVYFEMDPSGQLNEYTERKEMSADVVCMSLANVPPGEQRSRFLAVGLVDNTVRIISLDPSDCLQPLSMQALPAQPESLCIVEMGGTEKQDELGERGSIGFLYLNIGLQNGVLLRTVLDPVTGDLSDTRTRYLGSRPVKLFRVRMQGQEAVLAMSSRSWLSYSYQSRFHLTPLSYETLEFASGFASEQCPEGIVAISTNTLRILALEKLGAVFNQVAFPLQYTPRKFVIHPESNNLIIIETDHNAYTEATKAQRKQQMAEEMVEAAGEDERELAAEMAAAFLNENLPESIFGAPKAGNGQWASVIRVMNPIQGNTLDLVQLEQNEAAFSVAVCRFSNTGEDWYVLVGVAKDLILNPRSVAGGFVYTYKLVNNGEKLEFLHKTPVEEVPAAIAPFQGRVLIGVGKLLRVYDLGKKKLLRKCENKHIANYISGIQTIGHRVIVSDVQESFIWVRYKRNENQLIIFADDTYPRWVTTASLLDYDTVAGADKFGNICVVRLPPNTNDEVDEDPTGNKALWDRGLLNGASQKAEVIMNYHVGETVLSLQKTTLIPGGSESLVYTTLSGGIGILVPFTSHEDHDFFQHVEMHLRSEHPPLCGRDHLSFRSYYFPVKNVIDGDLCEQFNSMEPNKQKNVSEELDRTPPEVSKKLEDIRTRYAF

CC(C)C[C@H](NC(=O)[C@H](CCCNC(=N)N)NC(=O)[C@@H]1CCCN1C(=O)[C@H](Cc1c[nH]cn1)NC(=O)[C@H](CO)NC(=O)[C@@H]1CCCN1)C(=O)N[C@@H](CCC(N)=O)C(=O)N[C@H](C(=O)N[C@@H](Cc1c[nH]cn1)C(=O)N[C@H](C(=O)O)C(C)C)[C@@H](C)O
Kd (SCRIB PDZ3 domain; binding, fluorescence polarization; solution; Scribble PDZ3 domain): 21.3 µM

CCNC(=NC(=O)OC(C)(C)C)NC(=O)Nc1c(CC)cc(C(=O)NC)cc1CC
IC50 (4'-phosphopantetheinyl transferase PptT; inhibitor): > 100 µM

CSCC[C@H](NC(=O)[C@H](CCCNC(=N)N)NC(=O)[C@H](CCCCN)NC(=O)[C@H](CCC(=O)O)NC(=O)[C@H](C)NC(=O)[C@@H](N)Cc1ccc(O)cc1)C(=O)N[C@@H](CC(C)C)C(=O)N[C@H](C(=O)N[C@@H](CCC(=O)O)C(=O)N[C@H](C(=O)O)C(C)C)[C@@H](C)O
Kd (SCRIB PDZ3 domain; binding, fluorescence polarization; solution; Scribble PDZ3 domain): 34.8 µM

CCNC(=N)NC(=O)Nc1cccs1
IC50 (4'-phosphopantetheinyl transferase PptT; inhibitor): > 100 µM

CC(C)C[C@H](NC(=O)[C@@H](NC(=O)CNC(=O)[C@H](CC(N)=O)NC(=O)[C@H](CCCCN)NC(=O)[C@H](CO)NC(=O)[C@H](CC(=O)O)NC(=O)[C@H](Cc1ccc(O)cc1)NC(=O)[C@@H](N)CCCNC(=N)N)[C@@H](C)O)C(=O)N[C@H](C(=O)O)C(C)C
Kd (SCRIB PDZ3 domain; binding, fluorescence polarization; solution; Scribble PDZ3 domain): 26.5 µM

O=C(O)CNCP(=O)(O)O
Ki (EPSP synthase (Zea mays, UniProt A0A1D6NVZ6)): 0.06 ± 0.007 µM

COc1cc(Nc2ncc(F)c(Nc3ccc4c(n3)NC(=O)C(C)(C)O4)n2)cc(OC)c1OC
IC50 (COMT (Homo sapiens, UniProt P21964); enzyme activity, inhibitor): > 10 µM

C[C@H]1CN(c2n[nH]c3nc(N[C@H]4CC[C@H](NS(=O)(=O)CCC(F)(F)F)CC4)ncc23)CCO1
IC50 (Splicing factor 3B subunit 3 (Homo sapiens, UniProt Q15393); biochemical): ≥ 20 µM

CCc1cccc(CC)c1NC(=O)NC(=N)NCC(C)C
IC50 (4'-phosphopantetheinyl transferase PptT; inhibitor): > 100 µM

C[N+](C)(C)C
Kd (Chrnd/Chrna1/Chrne (Mus musculus, UniProt P02716+P04756+P20782, G173P/S470W); single-channel kinetics; P chain side site): 100 µM

CC(C)C[C@H](NC(=O)[C@H](CO)NC(=O)[C@H](CO)NC(=O)[C@H](CCC(=O)O)NC(=O)[C@H](Cc1ccc(O)cc1)NC(=O)[C@H](CO)NC(=O)[C@@H](NC(=O)[C@H](C)NC(=O)[C@@H](NC(=O)[C@@H](N)CCCCN)C(C)C)[C@@H](C)O)C(=O)O
Kd (SCRIB PDZ3 domain; binding, fluorescence polarization; solution; Scribble PDZ3 domain): 3.2 µM

CCNC(=N)NC(=O)Nc1ccc2c(c1)OCCO2
IC50 (4'-phosphopantetheinyl transferase PptT; inhibitor): > 100 µM

Excerpt of the above:
CC(C)C[C@H](NC(=O)[C@H](CO)NC(=O)[C@H](CO)NC(=O)[C@H](CCC(=O)O)NC(=O)[C@H](Cc1ccc(O)cc1)NC(=O)[C@H](CO)NC(=O)[C@@H](NC(=O)[C@H](C)NC(=O)[C@@H](NC(=O)[C@@H](N)CCCCN)C(C)C)[C@@H](C)O)C(=O)O
Kd (SCRIB PDZ3 domain; binding, fluorescence polarization; solution; Scribble PDZ3 domain): 3.2 µM

CCNC(=N)NC(=O)Nc1ccc2c(c1)OCCO2
IC50 (4'-phosphopantetheinyl transferase PptT; inhibitor): > 100 µM
